Assay results from different studies.
Each numbered part is a random draw from the data of one study; scales do not carry over between parts. Substitutions count along the parent as printed.

Set 1
Target: ABI1, truncated, D143A, DHFR fusion (Arabidopsis thaliana)
Technique: DHFR PCA, deep sequencing
Sample: yeast
Setting: methotrexate growth selection, single substitutions
Together with: (+)-ABA 0.39 µM
Baseline: wild-type fitted maximum
Direction: higher = stronger binding
Quantity: relative binding score
Starting sequence: PYL1, truncated, DHFR fusion (Arabidopsis thaliana); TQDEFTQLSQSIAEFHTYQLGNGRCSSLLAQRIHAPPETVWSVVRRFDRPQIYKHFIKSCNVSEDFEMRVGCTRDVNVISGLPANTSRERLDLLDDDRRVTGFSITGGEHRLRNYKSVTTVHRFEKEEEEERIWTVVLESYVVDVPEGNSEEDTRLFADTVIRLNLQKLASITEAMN; partner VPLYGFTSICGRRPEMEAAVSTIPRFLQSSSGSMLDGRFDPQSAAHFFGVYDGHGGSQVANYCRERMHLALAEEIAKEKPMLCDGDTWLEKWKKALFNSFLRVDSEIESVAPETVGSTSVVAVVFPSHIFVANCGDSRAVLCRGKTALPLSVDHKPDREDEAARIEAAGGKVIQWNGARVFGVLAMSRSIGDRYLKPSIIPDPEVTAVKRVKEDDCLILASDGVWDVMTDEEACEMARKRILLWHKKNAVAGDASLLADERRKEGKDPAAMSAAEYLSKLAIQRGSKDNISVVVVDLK
Change = T73H; result = 42.9%
Change = D3E; result = 55.5%
Change = V100A; result = 37.3%
Change = F15M; result = 0.464%
Change = G71C; result = -3.71%
Change = E152N; result = 10.9%
Change = I79E; result = 9.02%
Change = S11N; result = 10.6%
Change = N22H; result = 49.9%
Change = D97E; result = 70.9%
Change = K116E; result = -10.5%
Change = T1S; result = 42.1%
Change = G71L; result = -5.01%
Change = Y141Q; result = -20.4%

Set 2
Target: Prothrombin, mature alpha-thrombin (F2, Homo sapiens, UniProt P00734)
Technique: aptamer microarray, sandwich
Molecule type: DNA with 2'F-ANA
Sample: in vitro
Concentration: 200 nM
Setting: whole 15-mer aptamer, many near background
Together with: Cy3 exosite-II aptamer, 400 nM
Direction: higher = stronger binding
Quantity: mean fluorescence intensity
Oligonucleotide: GGTTGGTGTGGTTGG
Modification = 2'F-ANA at 2 4 5 6 9 11 12 13; result = 82.8 a.u.
Modification = 2'F-ANA at 1 4 5 6 8 11 12 13 14; result = 47.9 a.u.
Modification = 2'F-ANA at 1 2 3 5 9 10 11 13; result = 44.4 a.u.
Modification = 2'F-ANA at 2 4 7 8 9 12 13; result = 404 a.u.
Modification = 2'F-ANA at 1 11 14 15; result = 62.9 a.u.
Modification = 2'F-ANA at 1 3 4 5 6 7 12 15; result = 128 a.u.
Modification = 2'F-ANA at 1 2 3 4 6 11 12 13 15; result = 467 a.u.
Modification = 2'F-ANA at 2 3 7 8 11 13; result = 771 a.u.
Modification = 2'F-ANA at 1 6 11 12 13 14; result = 63.6 a.u.
Modification = 2'F-ANA at 9 11 12 14; result = 230 a.u.
Modification = 2'F-ANA at 2 3 5 7 9 14 15; result = 54.3 a.u.
Modification = 2'F-ANA at 2 3 4 7 9 11 12 13; result = 618 a.u.
Modification = 2'F-ANA at 1 2 3 7 9 12 15; result = 529 a.u.

Set 3
Target: CCNB2, cyclin fold, Cln2 fusion (human)
Technique: yeast growth competition, sequencing
Sample: yeast
Setting: weak parent motif
Baseline: not given
Direction: higher = stronger binding
Quantity: normalised enrichment score
Starting sequence: ORC1 docking peptide (human); PRARKRLELGNLG
Change = PRARKRLELGNFG [L12F]; result = 0.489
Change = PRARKCLELGNLG [R6C]; result = 0.486
Change = PRARIRLELGNLG [K5I]; result = 0.365
Change = PRARKRLETGNLG [L9T]; result = 0.454
Change = PGARKRLELGNLG [R2G]; result = 0.146
Change = PRARKRLELGNRG [L12R]; result = -0.221
Change = PRARKRLELGRLG [N11R]; result = 0.863
Change = PKARKRLELGNLG [R2K]; result = 0.274
Change = PRARKRLELGNLW [G13W]; result = 0.184
Change = PRAAKRLELGNLG [R4A]; result = -0.0527
Change = PRARKRLELGELG [N11E]; result = -0.236
Change = PRARKRLLLGNLG [E8L]; result = 0.133
Change = PRATKRLELGNLG [R4T]; result = 0.741
Change = PRARKRLKLGNLG [E8K]; result = 0.323
Change = HRARKRLELGNLG [P1H]; result = 0.452
Change = PRARKRLELGNLD [G13D]; result = 0.565
Change = PRARKRLELGNWG [L12W]; result = 0.921
Change = PQARKRLELGNLG [R2Q]; result = 0.253

Mixed results
Substance = PhoQ, residues 284 288 289 292 302 303 SIHLQL; target = PhoP, residues 12 14 15 18 19 NMSFL (Escherichia coli, UniProt P23836); test = Sort-seq, refers to: YFP reporter; system = E. coli; setting = PhoQ-PhoP variant library, together with: 10 µM Mg2+; how to read = baseline: high Mg2+ state, higher = stronger signaling; quantity = fold induction; result = 15.4

Some of these lines once more (set 2):
Modification = 2'F-ANA at 1 2 3 5 9 10 11 13; result = 44.4 a.u.
Modification = 2'F-ANA at 2 4 7 8 9 12 13; result = 404 a.u.
Modification = 2'F-ANA at 1 11 14 15; result = 62.9 a.u.
Modification = 2'F-ANA at 1 3 4 5 6 7 12 15; result = 128 a.u.
Modification = 2'F-ANA at 1 2 3 4 6 11 12 13 15; result = 467 a.u.
Modification = 2'F-ANA at 2 3 7 8 11 13; result = 771 a.u.
Modification = 2'F-ANA at 1 6 11 12 13 14; result = 63.6 a.u.
